Earlier results as cited in several papers.
Each line is one published result; not all experiments were run side by side.
Sequence of UniProt Q01727 (whole entry, looked up): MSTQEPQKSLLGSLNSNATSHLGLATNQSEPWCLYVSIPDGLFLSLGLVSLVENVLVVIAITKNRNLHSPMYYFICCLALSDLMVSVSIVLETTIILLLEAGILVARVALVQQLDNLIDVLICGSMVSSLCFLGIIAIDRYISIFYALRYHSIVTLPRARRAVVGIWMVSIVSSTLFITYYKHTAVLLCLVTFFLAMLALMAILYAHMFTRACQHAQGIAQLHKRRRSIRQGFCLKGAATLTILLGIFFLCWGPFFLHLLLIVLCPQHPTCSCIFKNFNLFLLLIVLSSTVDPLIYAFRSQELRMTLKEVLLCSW
Sequence of UniProt P00698 (whole entry, looked up): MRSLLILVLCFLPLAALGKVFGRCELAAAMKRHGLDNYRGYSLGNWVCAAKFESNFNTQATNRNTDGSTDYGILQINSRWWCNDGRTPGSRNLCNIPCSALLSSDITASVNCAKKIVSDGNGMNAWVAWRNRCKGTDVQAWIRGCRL
Sequence of UniProt P0AES9 (whole entry, looked up): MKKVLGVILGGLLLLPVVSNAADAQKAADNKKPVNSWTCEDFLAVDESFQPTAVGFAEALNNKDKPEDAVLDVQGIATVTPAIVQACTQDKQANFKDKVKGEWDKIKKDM

| Molecule | target or system | assay | system | conditions | measurement | result |
| --- | --- | --- | --- | --- | --- | --- |
| hdeA mature protein (Escherichia coli, UniProt P0AES9) |  | NMR, item: Glu26 |  | 298 K, numbering of the source | pKa | 4.57 |
| insulin glulisine |  | item: total insulin | human | subcutaneous abdomen, 0.2 U/kg, dose-adjusted from 0.1 U/kg | AUC | 2.18 nM·h |
| LYZ (Gallus gallus, UniProt P00698) |  | NMR, item: Asp18 |  | NaCl 100 mM, numbering of the source | pKa | 2.8 |
| CVRLHESCLGQQVPCCDPCATCYCRFFNAFCYCR (agouti-related protein (87–120); sequence looked up) | Mc1r (Mus musculus, UniProt Q01727) | reporter gene, agonist, beta-galactosidase reporter | peptide |  | EC50 | > 100 µM |

A few entries again:
| Molecule | target or system | assay | system | conditions | measurement | result |
| --- | --- | --- | --- | --- | --- | --- |
| CVRLHESCLGQQVPCCDPCATCYCRFFNAFCYCR (agouti-related protein (87–120); sequence looked up) | Mc1r (Mus musculus, UniProt Q01727) | reporter gene, agonist, beta-galactosidase reporter | peptide |  | EC50 | > 100 µM |
